{"data": "Published values gathered from unrelated publications", "note": "Parts stem from different laboratories: compare values within a part only."}
{"data": "Sample 1", "target": "Interferon regulatory factor 5, full length, phosphomimetic (IRF5, Homo sapiens, UniProt Q13568-2, residues 1-514, K96S/S451D/S453D/S456D/S462D)", "technique": "protein-binding microarray", "molecule type": "double-stranded DNA, one strand shown", "matrix": "in vitro", "tested at": "250 nM", "setting": "60-bp whole probe", "together with": "salmon DNA 0.4 mg/ml", "reference": "random background probes", "direction": "higher = stronger binding", "constant ends, left off below": "GCCTAGCAC … GTCTTGATTCGCTTGACGCTGCTG"}
{"Oligonucleotide": "GACGGACTGGGGTCTCGGGACGTGCTA", "log fluorescence [z-score]": -0.678}
{"Oligonucleotide": "TTAGGTATCGGGTATCTGTTAGTGCTA", "log fluorescence [z-score]": 4.46}
{"Oligonucleotide": "TCATCTCTCTATTCAGAACTGTGCTAG", "log fluorescence [z-score]": 0.581}
{"Oligonucleotide": "TCACCTTTGCCTCTGAGACTGTGCTAG", "log fluorescence [z-score]": -0.208}
{"Oligonucleotide": "TCATGATTGAATCTCCCACTGTGCTAG", "log fluorescence [z-score]": 0.00517}
{"Oligonucleotide": "GTAGGCTTCTATGTAGTTGAGTGCTAG", "log fluorescence [z-score]": -0.107}
{"Oligonucleotide": "CACGAACTGAGTATCGAGACGTGCTAG", "log fluorescence [z-score]": 1.41}
{"Oligonucleotide": "TATAATATATATTCATATATGTGCTAG", "log fluorescence [z-score]": 0.761}
{"data": "Sample 2", "target": "TAR DNA-binding protein 43, full length, His tag (TARDBP, Homo sapiens, UniProt Q13148, residues 1-414)", "technique": "RNA Bind-n-Seq", "molecule type": "RNA", "matrix": "in vitro", "tested at": "20 nM", "setting": "6-mer, flanks averaged, single round", "together with": "150 mM LiCl", "reference": "input library", "direction": "higher = stronger binding"}
{"Oligonucleotide": "UCGGAA", "6-mer enrichment (R)": 0.912}
{"Oligonucleotide": "ACCCGC", "6-mer enrichment (R)": 0.966}
{"Oligonucleotide": "CAGUAA", "6-mer enrichment (R)": 0.852}
{"Oligonucleotide": "CUCGCA", "6-mer enrichment (R)": 0.817}
{"Oligonucleotide": "CGGGAC", "6-mer enrichment (R)": 0.974}
{"Oligonucleotide": "CCCCAA", "6-mer enrichment (R)": 1.12}
{"Oligonucleotide": "GCAAGG", "6-mer enrichment (R)": 1.02}
{"Oligonucleotide": "GAUCUC", "6-mer enrichment (R)": 0.834}
{"data": "Sample 3", "target": "Sal-like protein 4, full length isoform A (SALL4, Homo sapiens, UniProt Q9UJQ4, residues 1-1053)", "technique": "universal PBM", "molecule type": "double-stranded DNA, one strand shown", "matrix": "in vitro", "tested at": "600 nM", "setting": "8-mer, flanks averaged, mean of replicates", "direction": "higher = stronger binding", "UniProt Q9UJQ4, sequence (whole entry, looked up)": "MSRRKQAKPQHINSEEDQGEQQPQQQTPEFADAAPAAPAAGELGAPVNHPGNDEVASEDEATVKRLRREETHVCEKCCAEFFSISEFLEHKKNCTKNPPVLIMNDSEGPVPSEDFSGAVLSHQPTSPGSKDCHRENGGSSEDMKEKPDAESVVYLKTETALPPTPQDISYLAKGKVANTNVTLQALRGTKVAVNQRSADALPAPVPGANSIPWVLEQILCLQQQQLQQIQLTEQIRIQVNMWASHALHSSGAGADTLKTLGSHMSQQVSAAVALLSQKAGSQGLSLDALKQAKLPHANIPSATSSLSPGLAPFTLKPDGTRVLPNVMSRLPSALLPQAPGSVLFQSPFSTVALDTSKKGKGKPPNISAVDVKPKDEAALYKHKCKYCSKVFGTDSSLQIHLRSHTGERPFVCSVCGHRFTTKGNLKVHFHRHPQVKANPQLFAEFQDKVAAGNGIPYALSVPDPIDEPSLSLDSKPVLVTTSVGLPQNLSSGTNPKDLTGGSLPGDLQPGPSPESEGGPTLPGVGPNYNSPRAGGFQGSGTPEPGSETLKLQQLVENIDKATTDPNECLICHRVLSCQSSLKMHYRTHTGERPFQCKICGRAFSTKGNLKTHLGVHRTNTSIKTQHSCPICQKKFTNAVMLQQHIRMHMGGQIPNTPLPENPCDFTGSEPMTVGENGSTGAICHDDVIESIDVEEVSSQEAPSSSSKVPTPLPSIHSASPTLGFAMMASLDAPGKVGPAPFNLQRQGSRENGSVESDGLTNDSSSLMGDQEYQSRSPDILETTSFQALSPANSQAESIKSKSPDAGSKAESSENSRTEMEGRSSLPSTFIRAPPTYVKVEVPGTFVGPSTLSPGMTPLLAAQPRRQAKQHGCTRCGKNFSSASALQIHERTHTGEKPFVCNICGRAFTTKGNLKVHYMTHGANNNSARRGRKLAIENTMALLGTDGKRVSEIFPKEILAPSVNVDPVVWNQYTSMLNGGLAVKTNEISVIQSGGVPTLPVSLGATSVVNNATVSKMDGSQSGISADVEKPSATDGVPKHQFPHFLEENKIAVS"}
{"Oligonucleotide": "GGACCATA", "E-score": -0.11}
{"Oligonucleotide": "CAACCATG", "E-score": -0.00317}
{"Oligonucleotide": "AAGGGGTG", "E-score": -0.163}
{"Oligonucleotide": "CAGCCACC", "E-score": -0.22}
{"Oligonucleotide": "CTCTCCGC", "E-score": -0.0954}
{"Oligonucleotide": "CGCCACTC", "E-score": -0.0936}
{"Oligonucleotide": "AAGACGAG", "E-score": -0.205}
{"Oligonucleotide": "ATATCGAG", "E-score": 0.156}
{"data": "Mixed results"}
{"Compound": "O=c1c2ccccc2[nH]c(=S)n1CCN1CCC(=C(c2ccc(F)cc2)c2ccc(F)cc2)CC1", "target": "Receptor tyrosine-protein kinase erbB-2 (ERBB2, Homo sapiens, UniProt P04626)", "test": "enzyme activity, inhibitor", "conditions": "0.5 µM", "scale": "reference: control", "measurement": "remaining activity", "value": "98.8%"}
{"note": "A few entries again (sample 2):"}
{"Oligonucleotide": "UCGGAA", "6-mer enrichment (R)": 0.912}
{"Oligonucleotide": "GAUCUC", "6-mer enrichment (R)": 0.834}
